{"data": "Measurements from different studies", "note": "Each line is one published result; not all experiments were run side by side. Numbers after ± are the reported error."}
{"Molecule": "Cn1cnc(Cn2c(=O)[nH]/c(=N\\c3cc4cn(C)nc4cc3Cl)n(Cc3cc(F)c(F)cc3F)c2=O)n1", "system": "human, mild renal impairment", "conditions": "oral, 375 mg", "measurement": "anaemia TEAE, Severe severity", "value": "0%"}
{"Molecule": "GINASVVNIQKEIDR", "target or system": "human CD4 T cells", "test": "AIM", "system": "peptide", "measurement": "responding donors", "value": "8%"}
{"Molecule": "O=c1oc(-c2ccccc2Br)nc2cccc(Cl)c12", "target or system": "Replicase polyprotein 1ab, main protease (rep, Severe acute respiratory syndrome coronavirus 2, UniProt P0DTD1)", "test": "viral replication, Gluc reporter", "system": "SARS-CoV-2", "conditions": "20 µM", "measurement": "inhibition", "value": "-0.0732%"}
{"Molecule": "FPQSAPHGV", "test": "AIM", "system": "peptide, CD8+ T cells from PBMC, human donors", "conditions": "dose not given", "measurement": "response magnitude per positive donor", "value": 103}
{"Molecule": "CC[C@H](C)[C@H](NC(=O)[C@H](CC(C)C)NC(=O)[C@H](Cc1c[nH]c2ccccc12)NC(=O)[C@H](CCC(N)=O)NC(=O)[C@@H](NC(=O)[C@H](Cc1ccccc1)NC(=O)[C@H](C)NC(=O)[C@H](CCCCNC(=O)COCCOCCNC(=O)COCCOCCNC(=O)CC[C@H](NC(=O)CCCCCCCCCCCCCCCCCCC(=O)O)C(=O)O)NC(=O)[C@H](CCC(N)=O)NC(=O)[C@H](C)NC(=O)[C@@H](NC(=O)[C@H](CCCCN)NC(=O)[C@H](CC(=O)O)NC(=O)[C@H](CC(C)C)NC(=O)C(C)(C)NC(=O)[C@@H](NC(=O)[C@H](CO)NC(=O)[C@H](Cc1ccc(O)cc1)NC(=O)[C@H](CC(=O)O)NC(=O)[C@H](CO)NC(=O)[C@@H](NC(=O)[C@H](Cc1ccccc1)NC(=O)[C@@H](NC(=O)CNC(=O)[C@H](CCC(=O)O)NC(=O)C(C)(C)NC(=O)[C@@H](N)Cc1ccc(O)cc1)[C@@H](C)O)[C@@H](C)O)[C@@H](C)CC)[C@@H](C)CC)C(C)C)C(=O)N[C@@H](C)C(=O)NCC(=O)NCC(=O)N1CCC[C@H]1C(=O)N[C@@H](CO)C(=O)N[C@@H](CO)C(=O)NCC(=O)N[C@@H](C)C(=O)N1CCC[C@H]1C(=O)N1CCC[C@H]1C(=O)N1CCC[C@H]1C(=O)N[C@@H](CO)C(N)=O", "system": "healthy subjects, single ascending dose", "conditions": "8.0 mg, day 29", "measurement": "serum amylase", "value": "67.4 ± 23 U/L"}
{"Molecule": "Nc1ncnc2c([C@@H]3N[C@H](CO)[C@@H](O)[C@H]3O)c[nH]c12", "target or system": "Chikungunya virus", "test": "viral replication", "system": "HeLa, AF 15561", "conditions": "50 µM", "measurement": "inhibition", "value": "4.7%"}
{"note": "A few entries again:"}
{"Molecule": "Nc1ncnc2c([C@@H]3N[C@H](CO)[C@@H](O)[C@H]3O)c[nH]c12", "target or system": "Chikungunya virus", "test": "viral replication", "system": "HeLa, AF 15561", "conditions": "50 µM", "measurement": "inhibition", "value": "4.7%"}
